# Published values collected from several papers.
# Each line is one published result; not all experiments were run side by side. Values joined by “and” are separate records of one study, mostly repeats; a detail may differ. ± gives the spread as reported.
# U2AF2: U2AF2 148-342 (Homo sapiens, UniProt P26368)
# UniProt P26368, sequence (whole entry, looked up): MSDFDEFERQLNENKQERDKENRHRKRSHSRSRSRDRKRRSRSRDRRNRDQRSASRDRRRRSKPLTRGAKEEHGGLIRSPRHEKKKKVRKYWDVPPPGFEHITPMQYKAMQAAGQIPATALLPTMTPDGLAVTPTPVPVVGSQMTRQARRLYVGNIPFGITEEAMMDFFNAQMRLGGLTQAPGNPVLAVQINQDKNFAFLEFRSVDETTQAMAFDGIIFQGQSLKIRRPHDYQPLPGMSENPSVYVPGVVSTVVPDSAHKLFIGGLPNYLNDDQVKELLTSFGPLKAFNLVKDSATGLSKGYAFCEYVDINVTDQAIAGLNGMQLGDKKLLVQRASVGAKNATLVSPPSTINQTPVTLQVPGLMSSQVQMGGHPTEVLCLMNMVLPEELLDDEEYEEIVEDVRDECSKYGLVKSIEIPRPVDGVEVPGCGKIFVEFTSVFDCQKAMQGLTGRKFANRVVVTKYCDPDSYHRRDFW
# B1: Protein S100-A9 (human); sequence looked up; chain MTCKMSQLERNIETIINTFHQYSVKLGHPDTLNQGEFKELVRKDLQNFLKKENKNEKVIEHIMEDLDTNADKQLSFEEFIMLMARLTWASHEKMHEGDEGPGHHHKPGLGEGTP
# B2: Protein S100-A8 (human); sequence looked up; chain MLTELEKALNSIIDVYHKYSLIKGNFHAVYRDDLKKLLETECPQYIRKKGADVWFKELDINTDGAVNFQEFLILVIKMGVAAHKKSHEESHKE
# B3: human PHGDH; sequence looked up; chain AFANLRKVLISDSLDPCCRKILQDGGLQVVEKQNLSKEELIAELQDCEGLIVRSATKVTADVINAAEKLQVVGRAGTGVDNVDLEAATRKGILVMNTPNGNSLSAAELTCGMIMCLARQIPQATASMKDGKWERKKFMGTELNGKTLGILGLGRIGREVATRMQSFGMKTIGYDPIISPEVSASFGVQQLPLEEIWPLCDFITVHTPLLPSTTGLLNDNTFAQCKKGVRVVNCARGGIVDEGALLRALQSGQCAGAALDVFTEEPPRDRALVDHENVISCPHLGASTKEAQSRCGEEIAVQFVDMVKGKSLTGVVNAQALTSAFSPHTKPWIGLAEALGTLMRAWAGSPKGTIQVITQGTSLKNAGNCLSPAVIVGLLKEASKQADVNLVNAKLLVKEAGLNVTTSHSPAAPGEQGFGECLLAVALAGAPYQAVGLVQGTTPVLQGLNGAVFRPEVPLRRDLPLLLFRTQTSDPAMLPTMIGLLAEAGVRLLSYQTSLVSDGETWHVMGISSLLPSLEAWKQHVTEAFQFHF
# B4: human PABP3; sequence looked up; chain MNPSTPSYPTASLYVGDLHPDVTEAMLYEKFSPAGPILSIRICRDLITSGSSNYAYVNFQHTKDAEHALDTMNFDVIKGKPVRIMWSQRDPSLRKSGVGNIFVKNLDKSINNKALYDTVSAFGNILSCNVVCDENGSKGYGFVHFETHEAAERAIKKMNGMLLNGRKVFVGQFKSRKEREAELGARAKEFPNVYIKNFGEDMDDERLKDLFGKFGPALSVKVMTDESGKSKGFGFVSFERHEDAQKAVDEMNGKELNGKQIYVGRAQKKVERQTELKRTFEQMKQDRITRYQVVNLYVKNLDDGIDDERLRKAFSPFGTITSAKVMMEGGRSKGFGFVCFSSPEEATKAVTEMNGRIVATKPLYVALAQRKEERQAYLTNEYMQRMASVRAVPNQRAPPSGYFMTAVPQTQNHAAYYPPSQIARLRPSPRWTAQGARPHPFQNKPSAIRPGAPRVPFSTMRPASSQVPRVMSTQRVANTSTQTVGPRPAAAAAAAATPAVRTVPRYKYAAGVRNPQQHRNAQPQVTMQQLAVHVQGQETLTASRLASAPPQKQKQMLGERLFPLIQAMHPTLAGKITGMLLEIDNSELLYMLESPESLRSKVDEAVAVLQAHQAKEATQKAVNSATGVPTV
Molecule,target or system,assay,test system,conditions,how to read,measurement,result
liraglutide,,,"Wistar rat, female, diet-induced obese, blood, fasted","subcutaneous, dose not given, after 4 weeks treatment",,serum HDL cholesterol,25 ± 1.4 mg/dL
B1 (Protein S100-A9),PP6C (human),"co-immunoprecipitation, IP-MS",CYB5R4 knockout cells,concentration not given,baseline: CYB5R4 knockout over parental,log2 fold change,1.45
human ME2 E90D,,"enzyme activity, NADH absorbance",,"with fumarate 3 mM, together with: L-malate varied",,Hill coefficient,1.04 ± 0.03
AAUGAUUAA (ssRNA),U2AF2,sequencing of bound RNA,RNA,motif only,,Kd,3.73 µM
colistin,Acinetobacter baumannii,broth microdilution,clinical isolate RKI-No_584/16,,,MIC,≤ 0.5 µg/mL
epoetin alfa,UT7/EPO,"microarray, measured: CCL2 (probe 216598_s_at)",,"5 U/mL, 90 min, together with: SCF 10 nM",baseline: vehicle,mRNA level,36.4 fold
GSGAGIATEV,"construct, MBP fusion, human SCRIB, PDZ 3-4",automated holdup,"peptide, crude extract","concentration not given, corrected by standard peak, unit not given","baseline: biotin control resin, higher = stronger binding",binding intensity,0.0187
CUGUUUCUU (ssRNA),U2AF2,sequencing of bound RNA,RNA,motif only,,Kd,17 µM
difelikefalin,,,Japanese haemodialysis patients with pruritus,"intravenous, 0.25 µg/kg, 8 weeks",,PGIC very much improved,19.7%
Peginesatide,UT7/EPO,"tyrosine phosphorylation, LC-MS/MS phosphoproteomics, GluC, measured: PLCG1 tyrosine 833",,"10 nM, 15 min, together with: 10 U/mL EPO",baseline: vehicle,phosphorylation level,6.8 fold
B2 (Protein S100-A8),PP6C (human),"co-immunoprecipitation, IP-MS",CYB5R4 knockout cells,concentration not given,baseline: CYB5R4 knockout over parental,log2 fold change,1.19
SEKHFRETEV,"construct, MBP fusion, human SCRIB, PDZ 3-4",automated holdup,"peptide, crude extract","concentration not given, uncorrected, unit not given","baseline: biotin control resin, higher = stronger binding",binding intensity,0.809
B3 (human PHGDH),PP6C (human),"co-immunoprecipitation, IP-MS",CYB5R4 knockout cells,concentration not given,baseline: CYB5R4 knockout over parental,log2 fold change,-0.1
milbemycin oxime,Saccharomyces cerevisiae,cell growth,"Pdr5 deleted, Cdr1 overexpressed","2^-4.966 µg/mL, together with: fluconazole 1 µg/mL",,OD600,0.677 and 0.589 and 0.637
GGWVEKETYY,"construct, MBP fusion, human SCRIB, PDZ 3-4",automated holdup,"peptide, crude extract","concentration not given, corrected by standard peak, unit not given","baseline: biotin control resin, higher = stronger binding",binding intensity,-0.0368
B4 (human PABP3),CYB5R4 knockout human cells,"PP6 interaction, 3xFLAG-PP6C IP-MS",,concentration not given,baseline: CYB5R4 KO over parental,log2 fold change,-0.52

# Some of these lines once more:
Molecule,target or system,assay,test system,conditions,how to read,measurement,result
B3 (human PHGDH),PP6C (human),"co-immunoprecipitation, IP-MS",CYB5R4 knockout cells,concentration not given,baseline: CYB5R4 knockout over parental,log2 fold change,-0.1
